# Results pooled from the literature.
# Protocols differ between the studies behind these lines. Several values in a cell are separate wells, animals, samples, runs or records. ± marks the error that the study gave.
# Sequence of UniProt Q9NNX6 (whole entry, looked up): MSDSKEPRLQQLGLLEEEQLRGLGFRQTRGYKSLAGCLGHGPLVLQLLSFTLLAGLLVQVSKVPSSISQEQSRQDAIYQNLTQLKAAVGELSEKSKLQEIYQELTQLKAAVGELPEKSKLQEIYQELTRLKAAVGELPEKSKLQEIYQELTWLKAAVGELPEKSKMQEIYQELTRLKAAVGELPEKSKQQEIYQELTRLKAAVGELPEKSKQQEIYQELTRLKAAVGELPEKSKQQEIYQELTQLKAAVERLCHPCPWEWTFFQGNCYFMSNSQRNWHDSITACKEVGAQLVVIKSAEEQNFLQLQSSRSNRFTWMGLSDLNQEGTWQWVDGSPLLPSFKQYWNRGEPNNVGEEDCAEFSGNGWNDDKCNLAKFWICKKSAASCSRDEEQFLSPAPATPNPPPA
# Sequence of UniProt P33913 (whole entry, unmodified, looked up): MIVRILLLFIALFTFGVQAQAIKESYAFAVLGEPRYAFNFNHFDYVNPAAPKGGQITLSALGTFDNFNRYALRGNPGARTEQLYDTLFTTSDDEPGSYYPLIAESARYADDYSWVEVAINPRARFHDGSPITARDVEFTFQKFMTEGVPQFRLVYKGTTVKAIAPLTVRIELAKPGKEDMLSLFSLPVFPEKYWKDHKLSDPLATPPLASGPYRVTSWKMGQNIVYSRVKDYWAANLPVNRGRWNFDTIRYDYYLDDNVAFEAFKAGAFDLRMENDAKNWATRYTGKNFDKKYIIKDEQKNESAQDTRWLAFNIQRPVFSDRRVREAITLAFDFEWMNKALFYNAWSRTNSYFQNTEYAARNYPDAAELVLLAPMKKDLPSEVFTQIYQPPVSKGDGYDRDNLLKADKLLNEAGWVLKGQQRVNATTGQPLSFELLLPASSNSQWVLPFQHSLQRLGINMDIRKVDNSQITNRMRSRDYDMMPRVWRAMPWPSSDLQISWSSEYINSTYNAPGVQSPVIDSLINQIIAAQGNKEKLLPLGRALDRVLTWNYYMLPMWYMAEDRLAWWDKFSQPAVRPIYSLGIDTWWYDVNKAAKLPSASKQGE
# Sequence of UniProt P59676 (whole entry, looked up): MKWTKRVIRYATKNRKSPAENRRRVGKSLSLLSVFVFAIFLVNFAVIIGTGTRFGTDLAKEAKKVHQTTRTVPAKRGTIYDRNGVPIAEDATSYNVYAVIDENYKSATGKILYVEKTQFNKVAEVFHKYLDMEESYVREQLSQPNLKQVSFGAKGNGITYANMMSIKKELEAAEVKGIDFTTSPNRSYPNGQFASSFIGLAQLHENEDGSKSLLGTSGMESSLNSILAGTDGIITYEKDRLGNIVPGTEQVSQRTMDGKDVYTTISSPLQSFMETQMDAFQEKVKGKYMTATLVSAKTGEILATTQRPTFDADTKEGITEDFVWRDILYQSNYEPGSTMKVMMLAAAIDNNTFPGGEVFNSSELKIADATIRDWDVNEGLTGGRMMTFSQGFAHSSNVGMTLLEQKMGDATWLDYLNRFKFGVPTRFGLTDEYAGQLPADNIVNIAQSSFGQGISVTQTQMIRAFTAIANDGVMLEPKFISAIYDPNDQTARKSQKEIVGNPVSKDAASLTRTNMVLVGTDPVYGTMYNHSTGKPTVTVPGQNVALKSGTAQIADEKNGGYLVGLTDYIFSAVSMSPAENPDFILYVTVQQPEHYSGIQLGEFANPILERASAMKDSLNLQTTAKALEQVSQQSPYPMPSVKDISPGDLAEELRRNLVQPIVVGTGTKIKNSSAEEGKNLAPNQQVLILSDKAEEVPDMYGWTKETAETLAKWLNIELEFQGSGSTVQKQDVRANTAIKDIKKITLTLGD
# Sequence of UniProt P42684 (whole entry, looked up): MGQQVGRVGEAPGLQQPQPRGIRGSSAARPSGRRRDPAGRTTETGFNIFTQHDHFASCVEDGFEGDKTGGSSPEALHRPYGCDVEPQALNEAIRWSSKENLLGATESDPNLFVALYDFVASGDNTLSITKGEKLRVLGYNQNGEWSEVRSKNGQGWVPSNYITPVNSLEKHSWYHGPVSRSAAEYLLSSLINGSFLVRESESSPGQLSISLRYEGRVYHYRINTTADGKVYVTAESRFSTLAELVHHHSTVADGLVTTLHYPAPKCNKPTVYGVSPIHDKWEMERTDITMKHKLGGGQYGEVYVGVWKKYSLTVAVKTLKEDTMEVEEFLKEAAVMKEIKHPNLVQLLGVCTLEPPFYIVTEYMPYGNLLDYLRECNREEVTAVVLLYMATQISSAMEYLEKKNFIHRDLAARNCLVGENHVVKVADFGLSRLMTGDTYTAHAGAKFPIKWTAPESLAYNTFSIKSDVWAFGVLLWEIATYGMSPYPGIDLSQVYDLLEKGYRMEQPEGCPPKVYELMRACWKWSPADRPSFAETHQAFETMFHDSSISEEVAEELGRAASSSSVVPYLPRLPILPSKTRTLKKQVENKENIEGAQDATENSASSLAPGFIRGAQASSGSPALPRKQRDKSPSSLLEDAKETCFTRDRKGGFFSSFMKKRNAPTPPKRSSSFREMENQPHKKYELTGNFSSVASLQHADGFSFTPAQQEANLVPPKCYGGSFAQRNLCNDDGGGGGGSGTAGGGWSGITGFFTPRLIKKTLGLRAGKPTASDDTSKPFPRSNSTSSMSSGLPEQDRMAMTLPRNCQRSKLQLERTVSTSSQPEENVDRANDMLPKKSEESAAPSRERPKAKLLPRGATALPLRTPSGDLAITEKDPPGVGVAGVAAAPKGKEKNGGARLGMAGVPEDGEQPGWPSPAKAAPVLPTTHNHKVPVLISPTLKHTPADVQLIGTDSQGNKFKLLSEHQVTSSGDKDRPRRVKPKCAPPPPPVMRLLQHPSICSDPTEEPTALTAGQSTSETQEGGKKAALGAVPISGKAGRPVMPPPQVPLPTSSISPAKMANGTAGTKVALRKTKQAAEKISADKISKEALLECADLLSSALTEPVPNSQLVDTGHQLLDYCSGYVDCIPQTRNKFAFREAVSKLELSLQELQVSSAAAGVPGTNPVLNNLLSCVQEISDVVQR
# Sequence of UniProt Q15046 (whole entry, looked up): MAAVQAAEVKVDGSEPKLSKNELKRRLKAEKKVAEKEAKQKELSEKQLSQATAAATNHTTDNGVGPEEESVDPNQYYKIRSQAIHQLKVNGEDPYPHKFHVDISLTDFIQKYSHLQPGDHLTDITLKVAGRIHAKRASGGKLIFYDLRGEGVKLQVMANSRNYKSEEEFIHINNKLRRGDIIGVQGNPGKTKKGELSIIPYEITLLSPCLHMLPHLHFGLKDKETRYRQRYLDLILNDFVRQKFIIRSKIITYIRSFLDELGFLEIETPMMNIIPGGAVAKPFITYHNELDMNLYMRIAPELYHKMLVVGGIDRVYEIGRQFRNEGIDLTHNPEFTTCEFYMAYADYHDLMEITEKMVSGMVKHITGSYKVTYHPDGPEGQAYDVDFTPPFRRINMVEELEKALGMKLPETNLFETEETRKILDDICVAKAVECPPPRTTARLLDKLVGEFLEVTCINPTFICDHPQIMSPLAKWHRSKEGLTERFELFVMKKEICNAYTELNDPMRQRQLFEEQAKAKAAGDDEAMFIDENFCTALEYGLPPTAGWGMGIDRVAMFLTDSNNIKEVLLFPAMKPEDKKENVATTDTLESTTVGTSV
# Sequence of UniProt P01106 (whole entry, looked up): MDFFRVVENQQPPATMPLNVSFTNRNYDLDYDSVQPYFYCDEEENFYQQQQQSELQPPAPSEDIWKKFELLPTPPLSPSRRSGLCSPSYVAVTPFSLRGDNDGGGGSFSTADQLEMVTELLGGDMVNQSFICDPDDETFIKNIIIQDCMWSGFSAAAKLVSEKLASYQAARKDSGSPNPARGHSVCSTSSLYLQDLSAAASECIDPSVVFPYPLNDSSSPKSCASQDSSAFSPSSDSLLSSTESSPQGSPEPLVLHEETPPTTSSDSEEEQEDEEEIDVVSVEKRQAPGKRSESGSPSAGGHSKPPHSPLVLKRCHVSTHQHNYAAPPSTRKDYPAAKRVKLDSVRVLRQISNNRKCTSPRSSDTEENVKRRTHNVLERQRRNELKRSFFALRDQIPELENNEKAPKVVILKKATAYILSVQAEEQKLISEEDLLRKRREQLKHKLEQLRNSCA
# Sequence of UniProt P31946 (whole entry, looked up): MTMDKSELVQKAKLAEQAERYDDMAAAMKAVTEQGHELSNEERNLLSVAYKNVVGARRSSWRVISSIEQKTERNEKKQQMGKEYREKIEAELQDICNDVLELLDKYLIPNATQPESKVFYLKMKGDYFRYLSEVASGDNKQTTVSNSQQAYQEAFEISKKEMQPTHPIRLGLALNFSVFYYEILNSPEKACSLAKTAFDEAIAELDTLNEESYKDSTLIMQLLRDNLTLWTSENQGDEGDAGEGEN
# Sequence of UniProt P08238 (whole entry, looked up): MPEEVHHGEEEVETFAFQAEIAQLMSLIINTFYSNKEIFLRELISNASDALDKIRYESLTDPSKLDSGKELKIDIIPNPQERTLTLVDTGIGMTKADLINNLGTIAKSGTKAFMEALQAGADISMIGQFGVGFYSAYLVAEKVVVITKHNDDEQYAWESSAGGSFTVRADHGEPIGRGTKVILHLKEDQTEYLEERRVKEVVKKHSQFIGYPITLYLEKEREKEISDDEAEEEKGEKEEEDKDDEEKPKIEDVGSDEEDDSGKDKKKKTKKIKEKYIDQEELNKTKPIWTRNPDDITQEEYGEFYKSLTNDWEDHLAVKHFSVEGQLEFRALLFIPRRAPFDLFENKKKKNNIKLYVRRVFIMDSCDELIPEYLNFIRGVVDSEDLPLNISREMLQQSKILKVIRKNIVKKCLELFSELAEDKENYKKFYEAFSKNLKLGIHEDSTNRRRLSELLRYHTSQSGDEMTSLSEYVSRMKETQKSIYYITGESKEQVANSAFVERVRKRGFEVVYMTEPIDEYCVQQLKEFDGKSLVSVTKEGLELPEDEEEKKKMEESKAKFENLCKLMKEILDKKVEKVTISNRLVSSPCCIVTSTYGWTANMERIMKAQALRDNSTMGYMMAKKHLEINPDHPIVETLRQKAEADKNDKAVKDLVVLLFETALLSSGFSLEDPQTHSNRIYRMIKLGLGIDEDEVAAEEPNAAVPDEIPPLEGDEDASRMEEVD
Compound,target or system,test,system,conditions,measurement,value
CC[C@H](C)[C@@H]1NC(=O)[C@@H]2CCCN2C(=O)[C@H](Cc2c[nH]c3ccccc23)NC(=O)[C@H](CO)NC(=O)[C@H](Cc2c[nH]c3ccccc23)NC(=O)[C@H](CC(N)=O)NC(=O)[C@H](CCCCN)NC(=O)[C@H](CCSC)NC(=O)[C@@H]2CSCCC(=O)N3CN(CN(C3)C(=O)CCSC[C@H](NC(=O)[C@H](C)N)C(=O)N3CCC[C@H]3C(=O)N[C@@H](Cc3ccccc3)C(=O)NCC(=O)N2)C(=O)CCSC[C@@H](C(=O)N[C@H](C(=O)N[C@@H](CC(N)=O)C(=O)N[C@@H](CCCCN)C(=O)N(C)CC(=O)N(C)CC(=O)N(C)CC(=O)N(C)CC(=O)N(C)CC(=O)N(C)CC(=O)N[C@@H](CCCCNC(=O)c2ccc(C(=O)O)c(-c3c4ccc(=O)cc-4oc4cc(O)ccc34)c2)C(N)=O)[C@@H](C)O)NC(=O)[C@H](Cc2c[nH]c3ccccc23)NC1=O,"Nectin-3 (NECTIN3, Homo sapiens, UniProt Q9NQS3)",fluorescence polarization,,,Kd,> 2 µM
CC[C@H](C)[C@H](NC(=O)[C@H](CO)NC(=S)Nc1ccc2c(c1)C(=O)OC21c2ccc(O)cc2Oc2cc(O)ccc21)C(=O)N[C@@H](CCC(=O)O)C(=O)N[C@@H](CCCCN)C(=O)NCC(=O)NCC(=O)N[C@@H](CCP(=O)(O)O)C(=O)N[C@@H](CC(C)C)C(=O)N1CCC[C@H]1C(=O)N[C@@H](CCCCN)C(=O)N[C@H](C(=O)N[C@@H](Cc1c[nH]c2ccccc12)C(=O)N[C@@H](CC(C)C)C(=O)N[C@H](C(=O)N1CCC[C@H]1C(=O)N[C@@H](CCCNC(=N)N)C(=O)O)C(C)C)C(C)C,"14-3-3 protein beta/alpha (Homo sapiens, UniProt P31946)","binding, fluorescence anisotropy",,"pH 7.5, FITC-labelled phosphopeptide titration",Kd,55.2 µM
CC[C@H](C)[C@H](NC(=O)[C@H](CCC(=O)O)NC(=O)[C@H](C)NC(=O)[C@H](CCCCN)NC(=O)[C@H](CC(C)C)NC(=O)[C@@H](NC(=O)[C@H](CCC(=O)O)NC(=O)[C@@H](NC(=O)[C@H](CCC(=O)O)NC(=O)[C@H](CC(=O)O)NC(=O)[C@H](C)NC(C)=O)[C@@H](C)O)C(C)C)C(=O)N[C@H]1CSCc2cccc(c2)CSC[C@@H](C(=O)N[C@@H](CCC(N)=O)C(=O)N[C@H](C(=O)N[C@@H](CCC(N)=O)C(=O)N[C@@H](CCC(=O)O)C(=O)NCCC(=O)N[C@@H](CCCCNC(=O)CCCC[C@@H]2SC[C@@H]3NC(=O)N[C@@H]32)C(N)=O)C(C)C)NC(=O)[C@H](C(C)C)NC(=O)[C@H](C)NC(=O)[C@H](CCCCN)NC1=O,"Myc proto-oncogene protein (MYC, Homo sapiens, UniProt P01106)","binding, BLI",,,Kd,6.01 µM
N=C(N)NCc1cn([C@@H]2[C@@H](OCCn3cc(-c4cc(OCCOCCO)c(C#Cc5cc(OCCOCCO)c(C#Cc6cc(OCCOCCO)c(-c7cn(CCO[C@H]8O[C@H](CO)[C@@H](O)[C@H](O)[C@@H]8n8cc(CNC(=N)N)nn8)nn7)cc6OCCOCCO)cc5OCCOCCO)cc4OCCOCCO)nn3)O[C@H](CO)[C@@H](O)[C@@H]2O)nn1,"CD209 antigen (CD209, Homo sapiens, UniProt Q9NNX6)",binding,,,Kd,10.3 µM and 9.31 µM
CSCC[C@H](NC=O)C(=O)N[C@@H](CCCNC(=N)N)C(=O)N[C@H](C(=O)NCC(=O)N[C@@H](CC(N)=O)C(=O)N[C@@H](C)C(=O)N[C@@H](CC(N)=O)C(=O)NCC(=O)NCC(=O)N[C@@H](CCCCNC(=S)Nc1ccc2c(c1)C(=O)OC21c2ccc(O)cc2Oc2cc(O)ccc21)C(=O)O)[C@@H](C)O,"Uncharacterized protein YejA (yejA, Escherichia coli, UniProt P33913, N75A)","binding, fluorescence polarisation",,YejA variant N57A,Kd,6.02 ± 0.37 µM
O=C1NC2(CC2)COc2ncc(F)cc2[C@H]2COCCN2c2ccn3ncc1c3n2,,,"Sprague-Dawley rat, female, serum","oral, 5 mg/kg/day, end of recovery, 4-week repeated-dose toxicity",albumin/globulin ratio,2.42 ± 0.53
C=C1NC(=O)CNC(=O)[C@H](CCCNC(=N)N)NC(=O)[C@H](Cc2ccc(O)cc2)NC(=O)[C@H](CC(C)C)NC(=O)[C@H](CO)NC(=O)[C@H](CCCCN)NC(=O)[C@H](CC(N)=O)NC(=O)CNC(=O)[C@H](Cc2ccccc2)NC(=O)[C@H](Cc2c[nH]c3ccccc23)NC(=O)[C@H](Cc2c[nH]c3ccccc23)NC(=O)c2ccc(-c3nc(C(=O)OC)cs3)nc2-c2csc1n2,"TRAF2 and NCK-interacting protein kinase (TNIK, Homo sapiens, UniProt Q9UKE5)","binding, SPR",,,Kd,0.0097 µM
CC(C)C[C@H](NC(=O)[C@H](CO)NC(=O)[C@@H]1CCCN1C(=O)[C@H](CCC(N)=O)NC(=O)[C@@H](NC(=O)[C@H](C)NC(=O)[C@H](CCCCN)NC(=O)[C@H](CC(C)C)NC(=O)[C@H](Cc1ccc(O)cc1)NC(=O)[C@H](COP(=O)(O)O)NC(=O)[C@H](CCC(=O)O)NC(=O)[C@H](CCCNC(=N)N)NC(=O)[C@H](CCCNC(=N)N)NC(=O)[C@H](C)NC(=O)[C@H](C)N)[C@@H](C)O)C(=O)O,"Membrane-associated guanylate kinase, WW and PDZ domain-containing protein 3 (Magi3, Rattus norvegicus, UniProt Q9JK71)",isothermal titration calorimetry,rat,"pH 8.0, 25 °C",Kd,0.4 ± 0.01 µM
CCCc1cc2cc(-n3nc(CCC)c4c3CC(C)(C)CC4=O)cc(N3CCC(O)CC3)c2c(=O)[nH]1,"Heat shock protein HSP 90-alpha (HSP90AA1, Homo sapiens, UniProt P07900)",fluorescence polarization,,"24 h, 4 °C, together with: FITC-geldanamycin tracer",Kd,> 100 µM
C(#C[P+](c1ccccc1)(c1ccccc1)c1ccccc1)c1ccccc1,"dnaK, substrate-binding domain (Escherichia coli, UniProt P0A6Y8)",ITC,,"42 °C, fragment residues 393-507",Kd,~41 µM
C=C1[C@@H](O)C[C@H]2C(C)(C)C[C@H](F)C[C@]2(C)[C@H]1C[C@H](O)[C@H]1CC(=O)NC1=O,"ribosome, Saccharomyces cerevisiae, 80S, E site",smFRET,,"pH 7.5, 23 °C, 5 mM MgCl2",Kd,3.8 ± 1.3 µM
N[C@H](Cc1ccccc1)P(=O)(O)O,"PAL1 (Petroselinum crispum, UniProt P24481, Y110F)",ITC,,,Kd,6.2 µM
CC1(C)C(NC(=O)C(=NOC2(C(=O)O)CC2)c2csc(N)n2)C(=O)N1OS(=O)(=O)O (stereo not drawn),beta-lactamase CMY-6 (Klebsiella pneumoniae),"binding, surface plasmon resonance",,,Kd,0.15 µM
O=C(N[C@@H]1c2ccccc2C[C@H]1N1CCCC1)c1ccc(-c2ccnc3[nH]ccc23)nc1,"cGMP-dependent protein kinase 1 (PRKG1, Homo sapiens, UniProt Q13976)","binding, competition with immobilised ligand",,,Kd,0.16 µM
c1ccc2c(c1)nc(CNCC13CC4CC(CC(C4)C1)C3)n2CCOC1CCCCC1,"Penicillin-binding protein 2X (Streptococcus pneumoniae R6, UniProt P59676)","binding, MST",,,Kd,180 µM
CC(C)[C@@H]1NC(=O)[C@H](Cc2ccccc2)NC(=O)CSC[C@@H](C(N)=O)NC(=O)[C@H](CCC(=O)O)NC(=O)[C@H](CO)NC(=O)[C@H](Cc2c[nH]c3ccccc23)NC(=O)[C@H](C(C)C)NC(=O)[C@H](C(C)C)NC(=O)[C@H](Cc2ccc(O)cc2)NC(=O)[C@H](CC(=O)O)NC(=O)[C@H](Cc2c[nH]c3ccccc23)NC(=O)[C@H](Cc2ccc(N)nc2)NC(=O)[C@H](Cc2c[nH]c3ccccc23)NC(=O)[C@H](CCC(=O)O)NC1=O,"Interleukin-1 receptor-like 2, D1-D2 domains (IL1RL2, Homo sapiens, UniProt Q9HB29)",SPR,,IL-36R domains D1-D2,Kd,0.111 ± 0.002 µM
CC[C@H](C)[C@H](NC(=O)[C@@H]1CCCN1C(=O)[C@@H](NC(=O)[C@H](C)N)C(C)C)C(=O)N[C@@H](C)C(=O)N[C@@H](CCC(N)=O)C(=O)N[C@@H](CCCCN)C(=O)N[C@@H](CO)C(=O)N[C@@H](CCC(=O)O)C(=O)N1CCC[C@H]1C(=O)N[C@@H](Cc1ccccc1)C(=O)N[C@@H](CCCCN)C(=O)N[C@@H](CCCCN)C(=O)N[C@@H](CCCCN)C(=O)N[C@@H](CCCCNC(=O)CCCCCNC(=S)Nc1ccc2c(c1)C(=O)OC21c2ccc(O)cc2Oc2cc(O)ccc21)C(N)=O,"E3 ubiquitin-protein ligase XIAP, BIR1 domain (XIAP, Homo sapiens, UniProt P98170)",fluorescence polarization,,"30 min, pH 7.5, together with: 20 nM FITC-labeled peptide",Kd,no binding
CCCc1cc2cc(-n3c4c(c5ccccc53)C(=O)CC(C)(C)C4)cc(N3CCC(O)CC3)c2c(=O)[nH]1,"Heat shock protein HSP 90-beta (HSP90AB1, Homo sapiens, UniProt P08238)",fluorescence polarization,,"24 h, 4 °C, together with: FITC-geldanamycin tracer",Kd,5.72 µM
CSCC[C@H](NC(=O)[C@H](Cc1c[nH]cn1)NC(=O)[C@H](C)NC(=O)[C@H](Cc1ccc(OP(=O)(O)O)cc1)NC(=O)[C@@H]1CCCN1C(=O)[C@H](CCC(N)=O)NC(=O)[C@H](CCCNC(=N)N)NC(=O)[C@H](CCC(=O)O)NC(=O)[C@H](CC(=O)O)NC(=O)[C@H](Cc1ccccc1)NC(=O)[C@H](CO)NC(=O)[C@H](C)NC(=O)[C@H](CCCNC(=N)N)NC(=O)c1ccc2c(c1)C(=O)OC21c2ccc(N(C)C)cc2Oc2cc(N(C)C)ccc21)C(=O)N[C@@H](CC(N)=O)C(=O)NCC(=O)NCC(=O)N[C@@H](CCCNC(=N)N)C(=O)N[C@@H](CC(=O)O)C(=O)O,"Tyrosine-protein kinase ABL2, SH2 domain (ABL2, Homo sapiens, UniProt P42684)",binding,,,Kd,1.36 µM
C[C@H]1NC(=O)[C@H](CCC(=O)N[C@@H](CCCCN)C(N)=O)NC(=O)[C@@H](C)NC(=O)[C@H](Cc2ccc(F)cc2)NC(=O)[C@H](Cc2c[nH]c3ccccc23)NC(=O)[C@H](CCCNC(=N)N)NC(=O)[C@H](Cc2ccc(O)cc2)NC(=O)[C@H](CCCNC(=N)N)NC1=O,"Lysine--tRNA ligase (KARS1, Homo sapiens, UniProt Q15046)",binding,,,Kd,2 µM
C[C@]12C(c3cccnc3)=C[C@H]3[C@@H](CCC4=C[C@H](O)CC[C@@]43C)[C@@H]1CC[C@@H]2O,"7-alpha-hydroxycholest-4-en-3-one 12-alpha-hydroxylase (Homo sapiens, UniProt Q9UNU6, W281F)","binding, spectral titration",,,Kd,6.75 µM

# Some of these lines once more:
Compound,target or system,test,system,conditions,measurement,value
CC1(C)C(NC(=O)C(=NOC2(C(=O)O)CC2)c2csc(N)n2)C(=O)N1OS(=O)(=O)O (stereo not drawn),beta-lactamase CMY-6 (Klebsiella pneumoniae),"binding, surface plasmon resonance",,,Kd,0.15 µM
N[C@H](Cc1ccccc1)P(=O)(O)O,"PAL1 (Petroselinum crispum, UniProt P24481, Y110F)",ITC,,,Kd,6.2 µM
CC[C@H](C)[C@H](NC(=O)[C@@H]1CCCN1C(=O)[C@@H](NC(=O)[C@H](C)N)C(C)C)C(=O)N[C@@H](C)C(=O)N[C@@H](CCC(N)=O)C(=O)N[C@@H](CCCCN)C(=O)N[C@@H](CO)C(=O)N[C@@H](CCC(=O)O)C(=O)N1CCC[C@H]1C(=O)N[C@@H](Cc1ccccc1)C(=O)N[C@@H](CCCCN)C(=O)N[C@@H](CCCCN)C(=O)N[C@@H](CCCCN)C(=O)N[C@@H](CCCCNC(=O)CCCCCNC(=S)Nc1ccc2c(c1)C(=O)OC21c2ccc(O)cc2Oc2cc(O)ccc21)C(N)=O,"E3 ubiquitin-protein ligase XIAP, BIR1 domain (XIAP, Homo sapiens, UniProt P98170)",fluorescence polarization,,"30 min, pH 7.5, together with: 20 nM FITC-labeled peptide",Kd,no binding
